Measurements collected from several papers.
Compare with care: the assays were run in different laboratories. “And” joins repeats or separate records; there may be more than shown.
Technique: steady-state kinetics
B1: UGT1A7 (Homo sapiens, UniProt Q9HAW7); chain GKLLVVPMDGSHWFTMQSVVEKLILRGHEVVVVMPEVSWQLGRSLNCTVKTYSTSYTLEDQDREFMVFADARWTAPLRSAFSLLTSSSNGIFDLFFSNCRSLFNDRKLVEYLKESCFDAVFLDPFDACGLIVAKYFSLPSVVFARGIFCHYLEEGAQCPAPLSYVPRLLLGFSDAMTFKERVWNHIMHLEEHLFCPYFFKNVLEIASEILQTPVTAYDLYSHTSIWLLRTDFVLEYPKPVMPNMIFIGGINCHQGKPVPMEFEAYINASGEHGIVVFSLGSMVSEIPEKKAMAIADALGKIPQTVLWRYTGTRPSNLANNTILVKWLPQNDLLGHPMTRAFITHAGSHGVYESICNGVPMVMMPLFGDQMDNAKRMETKGAGVTLNVLEMTSEDLENALKAVINDKSYKENIMRLSSLHKDRPVEPLDLAVFWVEFVMRHKGAPHLRPAAHDLTWYQYHSLDVIGFLLAVVLTVAFITFKCCAYGYRKCLGKKGRVKKAHKSKTH
B2: enzyme (Arabidopsis thaliana, UniProt Q9FJN8); chain TSGGGYGDPSQKIDYVFKVVLIGDSAVGKSQILARYARDEFSLDSKATIGVEFQTRTLVIDHKSVKAQIWDTAGQERYRAVTSAYYRGAVGAMLVYDITRRQTFDHIPRWLEELRAHADKNIVIILIGNKSDLVDQRAIPTEDAKEFAEKEGLFFLETSAFNATNVESAFSTVLTEIFNIVNKKSLAASEDQENGNPGSLAGKKIDIVPGPGQVIPNKSNMCCNS
B3: enzyme (Escherichia coli, UniProt P0AGF6); chain MHITYDLPVAIDDIIEAKQRLAGRIYKTGMPRSNYFSERCKGEIFLKFENMQRTGSFKIRGAFNKLSSLTDAEKRKGVVACSAGNHAQGVSLSCAMLGIDGKVVMPKGAPKSKVAATCDYSAEVVLHGDNFNDTIAKVSEIVEMEGRIFIPPYDDPKVIAGQGTIGLEIMEDLYDVDNVIVPIGGGGLIAGIAVAIKSINPTIRVIGVQSENVHGMAASFHSGEITTHRTTGTLADGCDVSRPGNLTYEIVRELVDDIVLVSEDEIRNSMIALIQRNKVVTEGAGALACAALLSGKLDQYIQNRKTVSIISGGNIDLSRVSQITGFVDA
B4: enzyme (UniProt A0A0P0CH59); chain MRIALFSDIHANLPALEAVLANMETQQLDAIYCLGDLVGYAPWPNEVVAEIRKRRIPTIAGNYDEGVGLWSPNCGCAYKTDTEKDLGQQSIDFTNNVVTEETRKYLRMLPRQLRLTFMDGSKEENKIELLLVHGSPRKINEYLFEDRPEKSFLKMMEEANADLLFFGHTHKPYHRAMPYEHEGQTRYRHAINIGSVGKPKDGDPRTGYVVVELTPESSLTQKDSIKVEFIRVPYDVETAAQAVEASPLPNEFAQMLRTA
B5: LAC4 (Kluyveromyces lactis, UniProt P00723); chain MSCLIPENLRNPKKVHENRLPTRAYYYDQDIFESLNGPWAFALFDAPLDAPDAKNLDWETAKKWSTISVPSHWELQEDWKYGKPIYTNVQYPIPIDIPNPPTVNPTGVYARTFELDSKSIESFEHRLRFEGVDNCYELYVNGQYVGFNKGSRNGAEFDIQKYVSEGENLVVVKVFKWSDSTYIEDQDQWWLSGIYRDVSLLKLPKKAHIEDVRVTTTFVDSQYQDAELSVKVDVQGSSYDHINFTLYEPEDGSKVYDASSLLNEENGNTTFSTKEFISFSTKKNEETAFKINVKAPEHWTAENPTLYKYQLDLIGSDGSVIQSIKHHVGFRQVELKDGNITVNGKDILFRGVNRHDHHPRFGRAVPLDFVVRDLILMKKFNINAVRNSHYPNHPKVYDLFDKLGFWVIDEADLETHGVQEPFNRHTNLEAEYPDTKNKLYDVNAHYLSDNPEYEVAYLDRASQLVLRDVNHPSIIIWSLGNEACYGRNHKAMYKLIKQLDPTRLVHYEGDLNALSADIFSFMYPTFEIMERWRKNHTDENGKFEKPLILCEYGHAMGNGPGSLKEYQELFYKEKFYQGGFIWEWANHGIEFEDVSTADGKLHKAYAYGGDFKEEVHDGVFIMDGLCNSEHNPTPGLVEYKKVIEPVHIKIAHGSVTITNKHDFITTDHLLFIDKDTGKTIDVPSLKPEESVTIPSDTTYVVAVLKDDAGVLKAGHEIAWGQAELPLKVPDFVTETAEKAAKINDGKRYVSVESSGLHFILDKLLGKIESLKVKGKEISSKFEGSSITFWRPPTNNDEPRDFKNWKKYNIDLMKQNIHGVSVEKGSNGSLAVVTVNSRISPVVFYYGFETVQKYTIFANKINLNTSMKLTGEYQPPDFPRVGYEFWLGDSYESFEWLGRGPGESYPDKKESQRFGLYDSKDVEEFVYDYPQENGNHTDTHFLNIKFEGAGKLSIFQKEKPFNFKISDEYGVDEAAHACDVKRYGRHYLRLDHAIHGVGSEACGPAVLDQYRLKAQDFNFEFDLAFE
B6: enzyme (Arabidopsis thaliana, UniProt Q9C969); chain GSFGMLSRRTLGTDMPVMAQIRSLMAELTNPMSLAQGVVHWQPPQKALEKVKELVWDPIISSYGPDEGLPELRQALLKKLREENKLTNSQVMVTAGANQAFVNLVITLCDAGDSVVMFEPYYFNSYMAFQMTGVTNIIVGPGQSDTLYPDADWLERTLSESKPTPKVVTVVNPGNPSGTYVPEPLLKRIAQICKDAGCWLIVDNTYEYFMYDGLKHCCVEGDHIVNVFSFSKTYGMMGWRLGYIAYSERLDGFATELVKIQDNIPICAAIISQRLAVYALEEGSGWITERVKSLVKNRDIVKEALEPLGKENVKGGEGAIYLWAKLPEGHRDDFKVVRWLAHRHGVVVIPGCASGSPGYLRVSFGGLQEVEMRAAAARLRKGIEELLHHGMVE
B7: enzyme (UniProt A0A097IUE6); chain TKRAMMATVSSLGIDKATGITKPSKVHRNLPYPEVFEHEQKNKEGEVTKNGTFCVSTGAFTGRSPKDKYFVHQSPSCDTLDWGKINVGVAPDVYKNIYEKAVKHYNENVDSMYVFDGYCGTSPKSRKNVRIITELAWQHHFAKNMFIRPDSEKEVENFNPDFTIINACKVLNKDYKELGLNSDVAVIFNVEEKMAVITGTWYGGEMKKGIFSMMNYWLPLDGIMAMHCSANKGKGGDTALFFGLSGTGKTTLSADPDRYLIGDDEHGWDDHGIFNFEGGCYAKTVNLSKDNEPEIYDAIKRDALLENVIIKSDGEPDYTDTSRTENTRVSYPIYHIDNHEPSGMGGHPTSIIFLTCDAFGVLPPVSRLSGGQAMYHFLSGYTAKVAGTERGVTEPTPNFSACFGAAFLTLHPTKYADLLQKKLDKHQTQCFLINTGWTGGGYGVGKRMSIKATRACVNAVLDGSINKANFTNDEVFGFEVPAELPEVPAQVLNPRAAWSDKEKYDNTRIKLAGMFKDNFKKFIKEGATDYSSYGPK
B8: enzyme (Chlamydomonas reinhardtii, UniProt A0A2K3D977); chain ASDSVLAVWRKADAVCFDVDCTITVNDSLDLLAEFMGVKEQVEILTNKAMDGSLSLEQALEERLNIINCSPDDIKRFIKAHPPASRMAPGIKELINSLQARGKAIYLISGGFRELTLPIAAYLGIPKENVFANRMNWQWDDETGMPTKLVGFDMSEPTAHNQGKPQAIARIRQRNPYNTVVMIGDGITDLEAVQTTGGADLFIGSGVVVERPAVAREADWYVYDYTDLLRTMARYSVAMVGSGAWACAAVRMIAQNTQVDDAADEFVDEVRMWVYEEDFEGKKLTEVINQTHTNPKYFPGFDLGPNVVAVPNIVDAVADADLIVFCAPHQFLHHICKQLVGKIKPGAAAISLTKGMRVRPEGPQLISQMVRRLLGIDCCVLMGANIATDIGREQLSEAVIGYDNLDAATLFQKIFQRPYFRVNLLPDPVGAEMCGTLKNIVALGAGMVDGLGLGPNSKAAIIRQGLVEMRAFSKALYPSVRDDTFMESCGVGDLVATCYGGRNRLVACEWTKAQMEGKPRTFEDLETDLLKGQKLQGVLTSNEVQEILKVRGWESQYPLFTTVNRIINGYLPPKYVVEFVAGAKYHIRRPGTDDEEIVPVRPKRPAAAGGVATAPILAA
B9: enzyme (Nicotiana tabacum, UniProt A0A1S3XCJ5); chain MLPQLSNSSGSGYSWMQDNSASCGNFSRNGRKQGPLNSVAPTERAQISSVDDLYDFICSGPLINKIGLTPEKVAESIDKWIEYGFRLCRLFQLNQLALNEPQKIRLYHYYIPVFLWCEQEISQHSSKFKDNEEIPPLVIGFSAPQGCGKTTLVFALEYLFKITGRKAATLSIDDFYLTAEEQAKLRENNPGNLLLEFRGNAGSHDLSLSVETLAELSKVTKEGVKMKLPRYDKSAYNGRGDRADPSTWPEVEGPLTVILFEGWMLGFKPLPPEAVKAVDPQLETVNKNLEAYYDAWYKYVKSWIIIKIHDPSYVYQWRLQAEIAMRADGNPGMSDEEVRDFVSRYLPAYKAYLPTLYSEGPTGADPEHVLLVEIDEGRNPILGS
UniProt Q9LRS0, sequence (whole entry, looked up): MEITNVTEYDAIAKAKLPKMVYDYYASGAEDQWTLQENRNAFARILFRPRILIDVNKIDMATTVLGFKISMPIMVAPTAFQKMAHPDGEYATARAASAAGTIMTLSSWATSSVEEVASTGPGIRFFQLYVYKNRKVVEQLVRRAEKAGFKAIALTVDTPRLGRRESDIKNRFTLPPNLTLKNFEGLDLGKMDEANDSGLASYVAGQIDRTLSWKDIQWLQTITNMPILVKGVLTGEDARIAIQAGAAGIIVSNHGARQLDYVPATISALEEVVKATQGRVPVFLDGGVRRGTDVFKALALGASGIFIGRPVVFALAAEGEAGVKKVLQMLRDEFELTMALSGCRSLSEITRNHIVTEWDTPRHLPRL
UniProt Q5ATH9, sequence (whole entry, looked up): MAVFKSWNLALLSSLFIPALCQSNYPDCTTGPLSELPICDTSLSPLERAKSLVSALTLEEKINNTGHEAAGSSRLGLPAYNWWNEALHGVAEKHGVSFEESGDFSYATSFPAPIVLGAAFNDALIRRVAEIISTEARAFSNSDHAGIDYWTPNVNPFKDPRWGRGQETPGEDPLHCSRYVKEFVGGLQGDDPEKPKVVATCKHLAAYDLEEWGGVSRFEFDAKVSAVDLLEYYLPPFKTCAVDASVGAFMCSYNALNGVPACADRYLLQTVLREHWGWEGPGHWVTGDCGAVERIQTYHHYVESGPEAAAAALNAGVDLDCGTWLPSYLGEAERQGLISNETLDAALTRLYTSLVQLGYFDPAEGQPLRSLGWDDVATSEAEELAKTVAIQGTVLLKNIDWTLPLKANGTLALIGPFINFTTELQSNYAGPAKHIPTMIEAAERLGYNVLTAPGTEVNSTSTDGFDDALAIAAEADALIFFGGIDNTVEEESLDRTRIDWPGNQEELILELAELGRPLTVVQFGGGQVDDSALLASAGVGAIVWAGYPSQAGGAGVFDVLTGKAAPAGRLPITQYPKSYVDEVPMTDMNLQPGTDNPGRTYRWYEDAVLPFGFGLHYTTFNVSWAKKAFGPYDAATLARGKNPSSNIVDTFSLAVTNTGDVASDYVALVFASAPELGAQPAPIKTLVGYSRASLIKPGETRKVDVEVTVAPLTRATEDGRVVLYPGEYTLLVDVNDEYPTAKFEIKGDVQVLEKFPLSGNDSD
UniProt O80501, sequence (whole entry, looked up): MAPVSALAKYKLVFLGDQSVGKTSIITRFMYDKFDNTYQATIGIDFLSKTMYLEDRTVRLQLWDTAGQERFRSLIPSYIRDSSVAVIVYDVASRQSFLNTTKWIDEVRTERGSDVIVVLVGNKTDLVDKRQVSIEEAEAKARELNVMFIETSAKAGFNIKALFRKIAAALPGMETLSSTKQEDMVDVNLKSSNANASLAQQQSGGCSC

Molecule | substrate | pH | temperature | notes | added | Vmax
B1 (UGT1A7) | CC(C)=CCc1cc2c(cc1O)O[C@H](c1ccc(O)cc1)CC2=O | pH 7.4 | – | – | – | 0.012 µmol/min/mg
B2 (enzyme) | Nc1nc2c(ncn2[C@@H]2O[C@H](COP(=O)(O)OP(=O)(O)OP(=O)(O)O)[C@@H](O)[C@H]2O)c(=O)[nH]1 | pH 7.5 | 30 °C | – | – | 2.2 µmol/min
B3 (enzyme) | C[C@@H](O)[C@H](N)C(=O)O | pH 7.5 | 23 °C | apparent, not purified | PLP 0.1 mM, L-Thr | 3.5 µmol/min/mg
B4 (enzyme) | O=[N+]([O-])c1ccc(OP(=O)(O)O)cc1 | – | 37 °C | – | Ni2+ 0.25 mM | 0.139 µmol/min/mg
gdh N192S/N97F (Bacillus subtilis) | NC(=O)c1ccc[n+]([C@@H]2O[C@H](COP(=O)(O)OP(=O)(O)OC[C@H]3O[C@@H](n4cnc5c(N)ncnc54)[C@H](O)[C@@H]3O)[C@@H](O)[C@H]2O)c1 | pH 7 | 55 °C | – | – | 327 µmol/min/mg
RABH1B (Arabidopsis thaliana, UniProt O80501) | Nc1nc2c(ncn2[C@@H]2O[C@H](COP(=O)(O)OP(=O)(O)OP(=O)(O)O)[C@@H](O)[C@H]2O)c(=O)[nH]1 | pH 7.5 | 30 °C | – | – | 2.4 µmol/min
enzyme (Saccharina japonica, UniProt A0A097IUE3) | C=C(OP(=O)(O)O)C(=O)O | pH 6.5 | 25 °C | – | 2 mM ADP | 23 µmol/min/mg
GLO2 (Arabidopsis thaliana, UniProt Q9LRS0) | O=C(O)CO | – | – | – | – | 24.5 µmol/min/mg
B5 (LAC4) | O=[N+]([O-])c1ccccc1O[C@@H]1O[C@H](CO)[C@H](O)[C@H](O)[C@H]1O | pH 6.5 | 30 °C | – | – | 249 µmol/min/mg
bxlB (Aspergillus nidulans, UniProt Q5ATH9) | O=[N+]([O-])c1ccc(O[C@@H]2OC[C@@H](O)[C@H](O)[C@H]2O)cc1 | pH 5 | 50 °C | – | – | 11 µmol/min/mg
gdh E198G/N97F (Bacillus subtilis) | NC(=O)c1ccc[n+]([C@@H]2O[C@H](COP(=O)(O)OP(=O)(O)OC[C@H]3O[C@@H](n4cnc5c(N)ncnc54)[C@H](O)[C@@H]3O)[C@@H](O)[C@H]2O)c1 | pH 7 | 55 °C | – | – | 248 µmol/min/mg
B6 (enzyme) | O=C(O)C(=O)Cc1ccccc1 | – | – | – | – | 1800 µM/min/mg and 1600 µM/min/mg
B7 (enzyme) | O=C(O)O | pH 6.5 | 25 °C | – | – | 61.6 µmol/min/mg
B8 (enzyme) | NC(=O)C1=CN([C@@H]2O[C@H](COP(=O)(O)OP(=O)(O)OC[C@H]3O[C@@H](n4cnc5c(N)ncnc54)[C@H](O)[C@@H]3O)[C@@H](O)[C@H]2O)C=CC1 | pH 7.5 | – | – | DHAP 5 mM | 114 µmol/min/mg
UGT1A3 (Homo sapiens, UniProt P35503) | O=c1cc(C(F)(F)F)c2ccc(O)cc2o1 | – | 37 °C | not purified | – | 0.000616 µmol/min/mg
B9 (enzyme) | O=C(O)[C@H](O)CO | pH 7.8 | 30 °C | – | – | 37.7 µmol/min/mg
enzyme (UniProt A0A097IUD8) | Nc1ncnc2c1ncn2[C@@H]1O[C@H](COP(=O)(O)OP(=O)(O)O)[C@@H](O)[C@H]1O | pH 6 | 25 °C | – | 16 mM PEP | 34.3 µmol/min/mg

Some of these lines once more:
Molecule | substrate | pH | temperature | notes | added | Vmax
GLO2 (Arabidopsis thaliana, UniProt Q9LRS0) | O=C(O)CO | – | – | – | – | 24.5 µmol/min/mg
